Assay results of several laboratories.
Compare with care: the assays were run in different laboratories. ± marks the error that the study gave.
GRPR: Gastrin-releasing peptide receptor (GRPR, Homo sapiens, UniProt P30550)
Sequence of UniProt P30550 (whole entry, looked up): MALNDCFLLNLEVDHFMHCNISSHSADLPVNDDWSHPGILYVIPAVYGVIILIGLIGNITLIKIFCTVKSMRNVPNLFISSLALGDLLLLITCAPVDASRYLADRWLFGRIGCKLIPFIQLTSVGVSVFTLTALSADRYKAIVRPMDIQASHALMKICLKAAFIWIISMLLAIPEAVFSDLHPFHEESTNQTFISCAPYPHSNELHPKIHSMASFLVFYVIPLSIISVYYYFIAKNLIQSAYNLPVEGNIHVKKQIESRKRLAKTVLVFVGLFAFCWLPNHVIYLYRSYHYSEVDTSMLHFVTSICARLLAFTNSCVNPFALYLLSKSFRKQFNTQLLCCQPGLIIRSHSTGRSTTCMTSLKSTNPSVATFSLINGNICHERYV
Sequence of UniProt P35499 (whole entry, unmodified, looked up): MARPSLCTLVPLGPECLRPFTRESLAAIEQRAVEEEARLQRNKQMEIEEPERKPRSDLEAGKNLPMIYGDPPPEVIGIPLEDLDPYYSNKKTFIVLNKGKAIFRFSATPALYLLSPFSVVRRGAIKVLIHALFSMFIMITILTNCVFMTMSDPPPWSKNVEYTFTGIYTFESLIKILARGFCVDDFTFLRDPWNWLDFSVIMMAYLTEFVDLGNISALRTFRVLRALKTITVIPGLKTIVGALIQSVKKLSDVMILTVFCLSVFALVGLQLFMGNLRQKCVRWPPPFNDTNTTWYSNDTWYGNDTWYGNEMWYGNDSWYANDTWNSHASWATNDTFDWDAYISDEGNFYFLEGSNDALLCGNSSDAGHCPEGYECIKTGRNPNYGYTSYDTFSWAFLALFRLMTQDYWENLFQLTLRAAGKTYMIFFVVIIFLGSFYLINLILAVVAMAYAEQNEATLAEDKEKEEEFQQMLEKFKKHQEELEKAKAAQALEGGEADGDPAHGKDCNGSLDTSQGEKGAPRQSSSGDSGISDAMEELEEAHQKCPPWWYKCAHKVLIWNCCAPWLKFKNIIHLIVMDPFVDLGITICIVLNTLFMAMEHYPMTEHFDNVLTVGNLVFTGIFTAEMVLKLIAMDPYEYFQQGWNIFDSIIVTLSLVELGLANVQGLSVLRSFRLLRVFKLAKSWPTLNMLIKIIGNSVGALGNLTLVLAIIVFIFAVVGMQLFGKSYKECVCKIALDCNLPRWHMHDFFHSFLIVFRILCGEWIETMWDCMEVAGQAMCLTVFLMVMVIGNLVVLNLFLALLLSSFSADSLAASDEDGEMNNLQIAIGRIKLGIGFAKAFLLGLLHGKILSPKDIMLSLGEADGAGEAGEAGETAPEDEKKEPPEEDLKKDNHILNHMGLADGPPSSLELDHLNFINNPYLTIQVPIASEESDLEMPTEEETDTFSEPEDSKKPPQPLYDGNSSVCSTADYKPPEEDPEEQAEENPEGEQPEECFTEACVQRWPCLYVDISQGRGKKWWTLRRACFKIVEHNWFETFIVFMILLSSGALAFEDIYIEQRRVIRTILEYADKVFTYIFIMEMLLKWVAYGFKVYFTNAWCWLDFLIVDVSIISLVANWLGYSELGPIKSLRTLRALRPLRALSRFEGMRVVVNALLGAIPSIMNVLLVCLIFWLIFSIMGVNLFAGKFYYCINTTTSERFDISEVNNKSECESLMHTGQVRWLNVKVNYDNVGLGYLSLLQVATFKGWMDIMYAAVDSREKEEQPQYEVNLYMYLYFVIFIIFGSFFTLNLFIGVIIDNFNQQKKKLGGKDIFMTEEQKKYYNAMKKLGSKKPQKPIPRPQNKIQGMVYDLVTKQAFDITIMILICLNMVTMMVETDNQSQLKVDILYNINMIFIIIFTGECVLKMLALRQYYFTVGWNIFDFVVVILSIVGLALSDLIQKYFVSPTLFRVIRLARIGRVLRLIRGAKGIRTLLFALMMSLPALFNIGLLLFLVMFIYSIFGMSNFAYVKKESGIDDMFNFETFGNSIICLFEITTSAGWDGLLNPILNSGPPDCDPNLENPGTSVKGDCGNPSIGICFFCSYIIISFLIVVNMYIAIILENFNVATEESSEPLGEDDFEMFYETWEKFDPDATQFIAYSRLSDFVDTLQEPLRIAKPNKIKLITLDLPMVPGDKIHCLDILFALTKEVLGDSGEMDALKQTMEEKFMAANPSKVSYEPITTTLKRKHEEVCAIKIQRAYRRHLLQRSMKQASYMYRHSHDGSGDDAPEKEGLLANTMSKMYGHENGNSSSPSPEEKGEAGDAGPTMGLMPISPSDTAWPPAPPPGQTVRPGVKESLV
Sequence of UniProt Q9HBA0 (whole entry, looked up): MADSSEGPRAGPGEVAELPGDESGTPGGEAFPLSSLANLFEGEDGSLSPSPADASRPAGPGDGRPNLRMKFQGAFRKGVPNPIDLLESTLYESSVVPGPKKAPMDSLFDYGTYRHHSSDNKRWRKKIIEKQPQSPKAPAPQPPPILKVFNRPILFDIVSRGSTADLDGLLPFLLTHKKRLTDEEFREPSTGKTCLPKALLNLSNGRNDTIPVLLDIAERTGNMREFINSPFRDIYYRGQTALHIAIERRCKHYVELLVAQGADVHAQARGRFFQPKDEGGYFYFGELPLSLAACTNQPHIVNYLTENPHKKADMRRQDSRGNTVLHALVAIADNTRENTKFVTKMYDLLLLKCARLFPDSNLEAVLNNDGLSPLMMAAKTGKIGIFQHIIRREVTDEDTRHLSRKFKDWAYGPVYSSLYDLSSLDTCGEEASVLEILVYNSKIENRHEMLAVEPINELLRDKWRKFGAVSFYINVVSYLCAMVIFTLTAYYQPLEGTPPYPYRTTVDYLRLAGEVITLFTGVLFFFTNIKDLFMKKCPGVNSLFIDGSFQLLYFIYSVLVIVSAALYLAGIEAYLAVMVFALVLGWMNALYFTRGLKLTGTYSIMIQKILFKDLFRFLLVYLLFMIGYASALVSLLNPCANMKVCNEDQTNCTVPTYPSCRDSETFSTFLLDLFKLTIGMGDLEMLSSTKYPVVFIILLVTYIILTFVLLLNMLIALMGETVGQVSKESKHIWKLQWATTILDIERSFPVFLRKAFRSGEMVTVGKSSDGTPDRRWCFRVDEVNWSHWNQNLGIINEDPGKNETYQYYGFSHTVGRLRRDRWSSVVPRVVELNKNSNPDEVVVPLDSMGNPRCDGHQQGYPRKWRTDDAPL
Sequence of UniProt P14902 (whole entry, looked up): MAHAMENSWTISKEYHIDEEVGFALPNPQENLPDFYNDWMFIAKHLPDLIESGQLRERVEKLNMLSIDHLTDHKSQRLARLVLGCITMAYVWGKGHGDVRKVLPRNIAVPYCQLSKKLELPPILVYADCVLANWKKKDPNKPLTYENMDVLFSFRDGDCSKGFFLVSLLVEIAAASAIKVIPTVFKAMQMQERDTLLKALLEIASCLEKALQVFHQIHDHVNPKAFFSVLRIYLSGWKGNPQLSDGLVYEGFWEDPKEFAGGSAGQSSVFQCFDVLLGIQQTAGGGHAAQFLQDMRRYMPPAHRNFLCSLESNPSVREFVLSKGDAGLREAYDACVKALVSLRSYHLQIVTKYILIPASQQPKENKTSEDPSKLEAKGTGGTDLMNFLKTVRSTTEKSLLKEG
Sequence of UniProt Q8NER1 (whole entry, looked up): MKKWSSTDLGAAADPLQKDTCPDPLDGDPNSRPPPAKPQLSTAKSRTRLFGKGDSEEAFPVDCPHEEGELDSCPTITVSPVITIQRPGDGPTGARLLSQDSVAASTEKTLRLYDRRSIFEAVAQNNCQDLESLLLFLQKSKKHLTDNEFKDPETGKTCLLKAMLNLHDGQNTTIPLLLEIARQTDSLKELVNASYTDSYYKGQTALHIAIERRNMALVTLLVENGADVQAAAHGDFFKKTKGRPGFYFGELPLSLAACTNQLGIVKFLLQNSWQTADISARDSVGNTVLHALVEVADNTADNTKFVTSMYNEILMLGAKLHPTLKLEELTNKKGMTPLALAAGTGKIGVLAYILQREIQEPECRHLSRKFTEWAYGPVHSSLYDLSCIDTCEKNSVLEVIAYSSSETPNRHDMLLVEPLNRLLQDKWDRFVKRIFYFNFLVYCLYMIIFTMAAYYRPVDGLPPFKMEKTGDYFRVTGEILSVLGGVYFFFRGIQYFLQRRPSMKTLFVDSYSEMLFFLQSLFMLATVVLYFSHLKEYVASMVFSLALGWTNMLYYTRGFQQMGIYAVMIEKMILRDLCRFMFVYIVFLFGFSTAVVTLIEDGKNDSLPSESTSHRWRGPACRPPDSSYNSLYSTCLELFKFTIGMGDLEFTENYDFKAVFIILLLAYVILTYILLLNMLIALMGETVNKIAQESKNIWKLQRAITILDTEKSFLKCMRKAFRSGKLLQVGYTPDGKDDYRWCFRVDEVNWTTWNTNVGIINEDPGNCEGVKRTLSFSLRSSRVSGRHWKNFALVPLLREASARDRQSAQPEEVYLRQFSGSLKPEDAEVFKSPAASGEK

CC(C)c1ccc2nc3ccc(C(=O)NCCN4CCN(c5ccccc5)CC4)cn3c(=O)c2c1 — IC50 (Transient receptor potential cation channel subfamily V member 4 (TRPV4, Homo sapiens, UniProt Q9HBA0); calcium signal, antagonist): 363 nM
Cc1cc2c(NC(=O)N[C@@H]3CC(C)(C)Oc4cc(C(F)(F)F)ccc43)cccc2cn1 — IC50 (Transient receptor potential cation channel subfamily V member 1 (TRPV1, Homo sapiens, UniProt Q8NER1); calcium signal, antagonist, fluorescence): 17.8 nM
CC(C)C[C@@H](CN[C@H](Cc1ccccc1)C(N)=O)NC(=O)[C@H](Cc1c[nH]cn1)NC(=O)CNC(=O)[C@@H](NC(=O)[C@H](C)NC(=O)[C@H](Cc1c[nH]c2ccccc12)NC(=O)[C@H](CCC(N)=O)NC(=O)[C@H](N)Cc1ccccc1)C(C)C — IC50 (GRPR; inositol phosphate generation, antagonist; Balb 3T3 expressing GRPR; added: GRP 1 nM): 151 ± 13 nM
CSCC[C@H](NC(=O)[C@H](CC(C)C)NC(=O)[C@H](Cc1c[nH]cn1)NC(=O)[C@@H](C)NC(=O)[C@@H](NC(=O)[C@H](C)NC(=O)[C@H](Cc1c[nH]c2ccccc12)NC(=O)[C@H](CCC(N)=O)NC(=O)[C@H](CC(N)=O)NC(=O)CNC(=O)[C@H](CC(C)C)NC(=O)[C@H](CCCNC(=N)N)NC(=O)[C@H](CCC(N)=O)NC(=O)[C@@H]1CCC(=O)N1)C(C)C)C(N)=O — IC50 (GRPR; ligand displacement in cells, radioligand): 0.54 nM
Cc1cccc(C)c1NC(=O)CC(C)NCc1ccccc1 (stereo not drawn) — IC50 (Sodium channel protein type 4 subunit alpha (SCN4A, Homo sapiens, UniProt P35499, F1586C); tonic block of sodium current, whole-cell patch clamp; HEK293; 0.1 Hz stimulation): 137000 ± 9000 nM
C[C@@H]1O[C@@H](OCc2cc(O)c3c(c2)[C@](O)([C@@H]2O[C@H](CO)[C@@H](O)[C@H](O)[C@H]2O)c2cccc(O)c2C3=O)[C@H](O)[C@H](O)[C@H]1O — IC50 (Indoleamine 2,3-dioxygenase 1 (IDO1, Homo sapiens, UniProt P14902); kynurenine formation, inhibitor): 53900 ± 950 nM
CN(C)c1ccc2c(c1)C(=O)N(CCS)C2=O — IC50 (Metallo-beta-lactamase VIM-2 (VIM-2, Escherichia coli, UniProt Q5U7L7); enzyme activity, inhibitor; pH 7): 240 nM
CC(=O)N[C@@H](CCCNC(=O)[C@H](Cc1ccc([N+](=O)[O-])cc1)NC(=O)[C@H](Cc1ccco1)NC(=O)[C@H](CC1CC1)NC(C)=O)C(N)=O — IC50 (Proto-oncogene tyrosine-protein kinase Src (SRC, Homo sapiens, UniProt P12931); Z′-LYTE; added: ATP at Km): > 100000 nM
COc1ccc2cc(C(=O)NCCN3CCC(Cc4ccccc4)CC3)ccc2c1 — IC50 (Sodium-dependent dopamine transporter (SLC6A3, Homo sapiens, UniProt Q01959); transporter uptake, inhibitor, radiometric): 1080 to 8400 nM
